Experimental data gathered from unrelated publications.
Each numbered part is a random draw from the data of one study; scales do not carry over between parts. Substitutions count along the parent as printed.

Sample 1
Target: Prothrombin, mature alpha-thrombin (F2, Homo sapiens, UniProt P00734)
Technique: aptamer microarray, sandwich
Form: DNA with 2'F-ANA
Medium: in vitro
Concentration: 200 nM
Notes: whole 15-mer aptamer, many near background
Together with: Cy3 exosite-II aptamer, 400 nM
Direction: higher = stronger binding
Measurement: mean fluorescence intensity
Strand: GGTTGGTGTGGTTGG
2'F-ANA at 2 3 4 5 6 7 8 10 12 15: 79.3 a.u.
2'F-ANA at 1 2 5 7 10 11: 65.6 a.u.
2'F-ANA at 3 7 8 10: 667 a.u.
2'F-ANA at 3 5 7 9 11 12 13 14: 62.1 a.u.
2'F-ANA at 1 2 4 5 6 8: 71.8 a.u.
2'F-ANA at 2 3 5 6 8 9 10 11 13 14 15: 56.5 a.u.
2'F-ANA at 2 4 5 7 8 10 11: 47 a.u.
2'F-ANA at 4 7 9 10 14 15: 62.8 a.u.

Sample 2
Target: Sal-like protein 4, full length isoform A (SALL4, Homo sapiens, UniProt Q9UJQ4, residues 1-1053)
Chain of UniProt Q9UJQ4 (whole entry, looked up): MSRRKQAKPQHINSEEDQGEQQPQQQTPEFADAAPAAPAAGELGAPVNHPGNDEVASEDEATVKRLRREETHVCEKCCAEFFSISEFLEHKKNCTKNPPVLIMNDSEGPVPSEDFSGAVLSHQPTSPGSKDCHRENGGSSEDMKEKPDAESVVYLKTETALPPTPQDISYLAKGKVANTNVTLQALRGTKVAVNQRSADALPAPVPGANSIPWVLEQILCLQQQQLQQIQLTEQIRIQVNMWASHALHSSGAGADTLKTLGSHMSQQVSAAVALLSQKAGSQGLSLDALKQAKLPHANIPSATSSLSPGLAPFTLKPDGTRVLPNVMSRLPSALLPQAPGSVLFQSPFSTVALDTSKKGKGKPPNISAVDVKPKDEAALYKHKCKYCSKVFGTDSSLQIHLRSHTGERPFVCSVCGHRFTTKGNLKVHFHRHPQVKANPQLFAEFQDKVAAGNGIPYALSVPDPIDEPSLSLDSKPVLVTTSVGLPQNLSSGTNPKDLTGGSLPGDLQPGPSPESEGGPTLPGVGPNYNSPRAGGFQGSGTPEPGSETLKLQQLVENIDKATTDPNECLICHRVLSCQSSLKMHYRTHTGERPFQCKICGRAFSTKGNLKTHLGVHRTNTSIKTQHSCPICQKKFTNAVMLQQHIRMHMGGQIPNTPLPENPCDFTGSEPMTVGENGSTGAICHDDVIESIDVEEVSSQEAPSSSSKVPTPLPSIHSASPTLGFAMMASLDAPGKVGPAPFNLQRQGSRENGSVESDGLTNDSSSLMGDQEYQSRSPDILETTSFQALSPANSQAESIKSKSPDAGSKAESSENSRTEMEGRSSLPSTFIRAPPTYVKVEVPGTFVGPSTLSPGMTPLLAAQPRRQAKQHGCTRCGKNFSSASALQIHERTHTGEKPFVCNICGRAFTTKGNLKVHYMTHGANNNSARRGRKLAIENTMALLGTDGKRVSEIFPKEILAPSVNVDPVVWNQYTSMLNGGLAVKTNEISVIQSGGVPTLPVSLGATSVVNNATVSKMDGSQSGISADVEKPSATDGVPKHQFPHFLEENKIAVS
Technique: universal PBM
Form: double-stranded DNA, one strand shown
Medium: in vitro
Concentration: 600 nM
Notes: 8-mer, flanks averaged, mean of replicates
Direction: higher = stronger binding
Measurement: E-score
AGTAAGTG: 0.0353
CGTTCCGA: -0.187
AGATTAGA: 0.194
ATCATCAT: 0.313
GAGGAGCC: -0.247
ATCTTACG: 0.136
CACTAAAG: -0.0315
CGCCCGGC: -0.386

Sample 3
Target: Hepatocyte nuclear factor 3-alpha (Foxa1, Mus musculus, UniProt P35582, residues 1-468, full length assumed)
Chain of UniProt P35582 (whole entry, looked up): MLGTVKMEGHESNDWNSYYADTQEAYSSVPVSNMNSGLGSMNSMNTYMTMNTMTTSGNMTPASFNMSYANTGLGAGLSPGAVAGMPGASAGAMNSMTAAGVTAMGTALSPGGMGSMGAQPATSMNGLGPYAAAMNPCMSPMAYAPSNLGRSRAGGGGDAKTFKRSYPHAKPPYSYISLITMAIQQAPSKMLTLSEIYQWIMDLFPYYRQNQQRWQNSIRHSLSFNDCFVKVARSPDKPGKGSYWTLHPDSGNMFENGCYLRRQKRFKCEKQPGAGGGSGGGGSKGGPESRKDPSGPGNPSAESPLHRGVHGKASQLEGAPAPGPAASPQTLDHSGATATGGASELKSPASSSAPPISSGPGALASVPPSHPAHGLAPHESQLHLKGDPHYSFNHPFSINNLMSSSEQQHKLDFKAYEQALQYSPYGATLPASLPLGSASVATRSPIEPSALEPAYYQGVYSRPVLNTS
Technique: EMSA with sequencing
Form: double-stranded DNA, one strand shown
Medium: in vitro
Concentration: 10 and 20 nM
Notes: whole designed probe, mean of two concentrations, ends assumed
Reference: negative control set to 0
Direction: higher = stronger binding
Measurement: normalised bound fraction
Constant ends, left off below: GTGAGCGGTGCCCATTGATGGGGAAC … TTTCACTGGGATCGTGGGGAC
GGAATTCCAACCTGAGATAAGGGCAATAAGTTTACTAGCTATGAGATATTACAGATAACATTTCGTACTGATGCCTCTTTTTGGTATTATGTAAAATTATTTTGGTCAGAAATATTGGATGAGTCACTAAATTGCATCATCTCAAGAAATGTTCCTGCATTTACATGTTATCCACTTAGAATTTAAAGTGGAC: -0.056 ratio
TTATGATCTGAGTATATATAGTAAGTACCTCCCCTTTCAGGGTAAGGCAGTAGGTAATGGTGAACAGGGAAGCAAAAGGTGACTCAGGTTGAGTAATCTACACCAAGCATATCTGACTCAAGGAATGCTTCAGAGGCCAGGGGTGCATGCCTGTAATCCCAGCACCTTGGAAGGCTGACACAGGAGGATCACT: -0.017 ratio
AAAGAAAGCAGCTCACTGGGTGAAGGACCTTGAGAAAGAGATGAACATTTCCTCTCTTGAGACACAGGACAAACAAGGTCACGCCTGAGCTCGGCAATCTAGGACTTCGGTGCCTGCCTACGGCGCCATTGCGCCCTCTAGTGGCTGCTGAGGAACCGCTGTCCAGCCCGAAGCTCACAGAGCCCCGTTCAGG: 0.0133 ratio
AATGTGAGCCATCTCCCGACACTCCGAGTTAATCTATAATGGAGTATTAGCACTGAGACACTGTATATGCCCCTGTCATCCTTTCCCCCAAAGTAAACAAGGGAAAGCCACACAGGCTTTAACACATAATACCTTACTTAATTCCATCAAACAGTGTCCTGAGACTCAGGATTGATAAAATACTGCAGTTCAA: 0.432 ratio
CATTTTAAATACACATTTCTGAAAGAGTTCTTAATGCTTGCATACTGACTTTTGTCATAGAGTTTATACTCTTGGGTTCTTATTTGTTTGCATGTTTACATATAATTTCAAAATAAGTGCTAAATAAATTGTCCTTGATAATAGCCTATGTGCTTACATAGAAATACTAATTGTAAAATATCTGTAGCAATAA: 0.379 ratio
ATCTTCCCCCTCTTCCTTGCCCCACCAGCTCACCTTCCCGGGTATATTGGAGATAGGAAATTAATATAAGCCGGCATTCGTTAACCCTCTTCTGGCGCAAACTGCACATTGGTCTGGATCTAACATGGTCCTTTGGCGACGCCAGGCTCCGGGAGAGCAAAGCACCGTGTCAGGGCCATGATCCGGGGTGGCC: 0.0275 ratio
ATCTTCCCCCTCTTCCTTGCCCCACCAGCTCACCTTCTGCGCTTGATTGCAGATAGGAAAATAAATAAAGCCGGCATTCGTTAACCCTCTTCTGGCGCAAACTGCTGTTTGCTCTGGATGAATCATGGTCCTTTGGCGACGCCAGGCTCCGGGAGAGCAAAGCACCGTGTCAGGGCCATGATCCGGGGTGGCC: 0.318 ratio
TCTAGATTCTTTTCCTTAATCTGTAAATCCTCACAATCTTCCTGTTTTCTCTTCTCCCTATGATCCACTGTGCCCTAAATACCAATGTATTTATGTTTACAGTAAAATTACGATATCTTAGTCATCCTAACTTGGCCAAACAGAAAAATTTATATACATTTGTTATATTTATATAGCCTCTCTCATTTATCTG: 0.2 ratio

Sample 4
Target: CCND2, cyclin fold, Cln2 fusion (human)
Technique: yeast growth competition, sequencing
Medium: yeast
Notes: weak parent motif
Reference: not given
Direction: higher = stronger binding
Measurement: normalised enrichment score
Starting sequence: viral docking peptide; KKAKRRLFTISDS
R5A: 0.307
K1A: 0.276
S11A: 0.524
I10A: -0.00666
F8A: 0.26
R6A: 0.716
F8L: 0.32

Excerpt of the above (sample 1):
2'F-ANA at 1 2 4 5 6 8: 71.8 a.u.
2'F-ANA at 2 3 4 5 6 7 8 10 12 15: 79.3 a.u.
2'F-ANA at 3 5 7 9 11 12 13 14: 62.1 a.u.
2'F-ANA at 2 4 5 7 8 10 11: 47 a.u.
